Assay results collected from several papers.
Several values in a cell are separate wells, animals, samples, runs or records.
IL1RL2: Interleukin-1 receptor-like 2 (IL1RL2, Homo sapiens, UniProt Q9HB29)
Sequence of UniProt Q9HB29 (whole entry, looked up): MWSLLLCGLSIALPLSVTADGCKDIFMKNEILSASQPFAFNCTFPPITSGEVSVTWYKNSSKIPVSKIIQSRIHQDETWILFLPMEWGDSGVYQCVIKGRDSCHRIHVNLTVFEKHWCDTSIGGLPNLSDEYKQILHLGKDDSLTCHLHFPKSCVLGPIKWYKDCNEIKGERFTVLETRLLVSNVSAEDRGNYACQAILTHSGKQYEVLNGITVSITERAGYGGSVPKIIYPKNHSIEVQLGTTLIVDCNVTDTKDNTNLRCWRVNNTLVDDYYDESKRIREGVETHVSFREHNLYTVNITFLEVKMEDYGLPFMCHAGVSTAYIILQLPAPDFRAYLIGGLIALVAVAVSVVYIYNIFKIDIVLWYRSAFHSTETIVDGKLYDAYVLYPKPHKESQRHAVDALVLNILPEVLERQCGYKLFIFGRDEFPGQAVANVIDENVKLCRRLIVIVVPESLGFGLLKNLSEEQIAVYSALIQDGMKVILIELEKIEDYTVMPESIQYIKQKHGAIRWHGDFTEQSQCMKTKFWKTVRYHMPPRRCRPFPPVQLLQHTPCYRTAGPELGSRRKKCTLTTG
Cereblon/Ikaros: Cereblon/Ikaros (Homo sapiens, UniProt Q13422+Q96SW2)
MAOA: Amine oxidase [flavin-containing] A (MAOA, Homo sapiens, UniProt P21397)
Sequence of UniProt P21397 (whole entry, looked up): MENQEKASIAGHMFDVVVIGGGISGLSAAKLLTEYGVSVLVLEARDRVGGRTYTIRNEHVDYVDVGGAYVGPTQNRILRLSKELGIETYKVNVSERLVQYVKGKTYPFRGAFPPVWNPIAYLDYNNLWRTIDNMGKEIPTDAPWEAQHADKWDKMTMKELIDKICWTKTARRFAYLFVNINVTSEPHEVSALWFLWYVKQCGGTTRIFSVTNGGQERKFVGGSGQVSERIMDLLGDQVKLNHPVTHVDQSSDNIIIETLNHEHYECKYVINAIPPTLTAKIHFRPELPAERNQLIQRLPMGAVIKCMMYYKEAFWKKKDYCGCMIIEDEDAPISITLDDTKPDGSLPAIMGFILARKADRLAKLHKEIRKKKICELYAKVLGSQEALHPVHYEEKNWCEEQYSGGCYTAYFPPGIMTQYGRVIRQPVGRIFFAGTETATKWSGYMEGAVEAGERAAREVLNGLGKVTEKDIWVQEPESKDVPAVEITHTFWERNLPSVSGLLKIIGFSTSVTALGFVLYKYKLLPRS
MAPK8: Mitogen-activated protein kinase 8 (MAPK8, Homo sapiens, UniProt P45983)
Sequence of UniProt P45983 (whole entry, looked up): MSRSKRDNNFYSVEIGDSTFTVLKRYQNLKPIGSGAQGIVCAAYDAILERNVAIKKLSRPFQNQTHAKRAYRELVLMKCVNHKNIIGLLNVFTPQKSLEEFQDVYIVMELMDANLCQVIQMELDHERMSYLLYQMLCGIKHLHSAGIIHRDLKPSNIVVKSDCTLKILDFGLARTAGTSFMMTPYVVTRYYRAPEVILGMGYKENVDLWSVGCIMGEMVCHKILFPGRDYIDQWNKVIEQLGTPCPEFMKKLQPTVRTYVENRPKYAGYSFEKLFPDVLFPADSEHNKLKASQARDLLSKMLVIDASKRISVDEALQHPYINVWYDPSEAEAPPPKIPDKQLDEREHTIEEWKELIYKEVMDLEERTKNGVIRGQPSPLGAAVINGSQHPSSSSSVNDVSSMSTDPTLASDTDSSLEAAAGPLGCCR
Sequence of UniProt Q9NYV4 (whole entry, looked up): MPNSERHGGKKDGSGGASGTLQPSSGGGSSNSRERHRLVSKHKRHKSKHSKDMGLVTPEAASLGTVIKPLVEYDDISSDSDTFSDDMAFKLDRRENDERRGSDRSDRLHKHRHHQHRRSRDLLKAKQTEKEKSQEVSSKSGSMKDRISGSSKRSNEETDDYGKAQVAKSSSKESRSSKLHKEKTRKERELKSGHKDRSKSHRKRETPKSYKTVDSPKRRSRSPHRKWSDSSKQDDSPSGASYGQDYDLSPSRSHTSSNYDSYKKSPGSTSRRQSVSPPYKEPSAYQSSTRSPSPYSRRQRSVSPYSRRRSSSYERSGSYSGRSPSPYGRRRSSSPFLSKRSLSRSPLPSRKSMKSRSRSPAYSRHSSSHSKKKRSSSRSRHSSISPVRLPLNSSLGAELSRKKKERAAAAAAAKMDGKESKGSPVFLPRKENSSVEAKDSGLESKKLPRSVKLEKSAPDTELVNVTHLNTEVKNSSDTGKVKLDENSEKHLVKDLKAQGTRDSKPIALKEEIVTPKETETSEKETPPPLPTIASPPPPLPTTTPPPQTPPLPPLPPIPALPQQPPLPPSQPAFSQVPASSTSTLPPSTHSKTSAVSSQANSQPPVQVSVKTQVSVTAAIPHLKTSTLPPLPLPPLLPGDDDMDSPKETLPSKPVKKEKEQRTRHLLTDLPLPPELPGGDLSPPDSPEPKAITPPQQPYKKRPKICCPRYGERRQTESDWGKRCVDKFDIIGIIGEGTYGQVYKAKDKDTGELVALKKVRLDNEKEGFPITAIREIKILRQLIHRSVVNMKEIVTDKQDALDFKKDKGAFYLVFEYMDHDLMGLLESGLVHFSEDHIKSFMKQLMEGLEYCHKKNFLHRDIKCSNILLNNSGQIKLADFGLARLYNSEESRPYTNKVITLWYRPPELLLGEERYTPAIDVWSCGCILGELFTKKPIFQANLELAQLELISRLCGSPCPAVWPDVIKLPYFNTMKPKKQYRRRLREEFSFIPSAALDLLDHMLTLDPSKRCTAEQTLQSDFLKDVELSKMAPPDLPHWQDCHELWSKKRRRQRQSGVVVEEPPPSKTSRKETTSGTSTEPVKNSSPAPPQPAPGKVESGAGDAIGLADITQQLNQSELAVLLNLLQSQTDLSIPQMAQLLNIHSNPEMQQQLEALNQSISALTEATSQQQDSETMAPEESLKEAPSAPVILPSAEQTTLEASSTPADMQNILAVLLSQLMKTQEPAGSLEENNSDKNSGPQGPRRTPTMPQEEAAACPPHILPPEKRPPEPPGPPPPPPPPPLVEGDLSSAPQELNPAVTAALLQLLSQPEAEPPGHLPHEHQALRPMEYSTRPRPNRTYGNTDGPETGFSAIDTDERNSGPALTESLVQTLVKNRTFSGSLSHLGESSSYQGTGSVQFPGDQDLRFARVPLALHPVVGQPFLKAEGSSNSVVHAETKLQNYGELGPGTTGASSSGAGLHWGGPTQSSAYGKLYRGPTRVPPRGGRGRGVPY
Sequence of UniProt Q6PJP8 (whole entry, looked up): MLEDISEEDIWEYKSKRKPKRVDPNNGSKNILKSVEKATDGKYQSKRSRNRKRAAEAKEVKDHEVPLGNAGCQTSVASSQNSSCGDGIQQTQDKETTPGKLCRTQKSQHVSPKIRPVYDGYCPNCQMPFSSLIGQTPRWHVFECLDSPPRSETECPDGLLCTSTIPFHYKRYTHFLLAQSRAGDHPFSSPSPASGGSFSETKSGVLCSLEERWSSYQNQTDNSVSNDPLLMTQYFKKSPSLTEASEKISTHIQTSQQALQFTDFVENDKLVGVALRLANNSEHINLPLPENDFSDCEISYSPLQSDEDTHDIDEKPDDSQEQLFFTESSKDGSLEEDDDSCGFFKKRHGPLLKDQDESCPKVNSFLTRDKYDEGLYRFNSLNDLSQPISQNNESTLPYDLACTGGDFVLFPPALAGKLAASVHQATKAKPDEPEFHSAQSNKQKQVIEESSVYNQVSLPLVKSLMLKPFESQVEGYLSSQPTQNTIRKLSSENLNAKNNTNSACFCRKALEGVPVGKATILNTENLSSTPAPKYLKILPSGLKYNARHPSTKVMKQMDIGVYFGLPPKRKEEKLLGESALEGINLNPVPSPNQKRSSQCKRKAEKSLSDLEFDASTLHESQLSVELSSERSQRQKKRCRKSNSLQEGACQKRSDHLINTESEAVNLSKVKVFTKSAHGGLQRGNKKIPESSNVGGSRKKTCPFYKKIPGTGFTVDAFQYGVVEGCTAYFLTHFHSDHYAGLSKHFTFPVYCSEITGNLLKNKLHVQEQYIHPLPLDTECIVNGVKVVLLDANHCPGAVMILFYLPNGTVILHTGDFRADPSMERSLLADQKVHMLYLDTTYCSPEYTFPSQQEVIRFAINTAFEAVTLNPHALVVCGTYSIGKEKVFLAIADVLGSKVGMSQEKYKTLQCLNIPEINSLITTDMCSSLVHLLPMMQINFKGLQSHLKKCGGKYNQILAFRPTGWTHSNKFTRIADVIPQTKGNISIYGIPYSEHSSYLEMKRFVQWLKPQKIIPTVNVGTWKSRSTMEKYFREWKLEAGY
Sequence of UniProt Q6VAB6 (whole entry, looked up): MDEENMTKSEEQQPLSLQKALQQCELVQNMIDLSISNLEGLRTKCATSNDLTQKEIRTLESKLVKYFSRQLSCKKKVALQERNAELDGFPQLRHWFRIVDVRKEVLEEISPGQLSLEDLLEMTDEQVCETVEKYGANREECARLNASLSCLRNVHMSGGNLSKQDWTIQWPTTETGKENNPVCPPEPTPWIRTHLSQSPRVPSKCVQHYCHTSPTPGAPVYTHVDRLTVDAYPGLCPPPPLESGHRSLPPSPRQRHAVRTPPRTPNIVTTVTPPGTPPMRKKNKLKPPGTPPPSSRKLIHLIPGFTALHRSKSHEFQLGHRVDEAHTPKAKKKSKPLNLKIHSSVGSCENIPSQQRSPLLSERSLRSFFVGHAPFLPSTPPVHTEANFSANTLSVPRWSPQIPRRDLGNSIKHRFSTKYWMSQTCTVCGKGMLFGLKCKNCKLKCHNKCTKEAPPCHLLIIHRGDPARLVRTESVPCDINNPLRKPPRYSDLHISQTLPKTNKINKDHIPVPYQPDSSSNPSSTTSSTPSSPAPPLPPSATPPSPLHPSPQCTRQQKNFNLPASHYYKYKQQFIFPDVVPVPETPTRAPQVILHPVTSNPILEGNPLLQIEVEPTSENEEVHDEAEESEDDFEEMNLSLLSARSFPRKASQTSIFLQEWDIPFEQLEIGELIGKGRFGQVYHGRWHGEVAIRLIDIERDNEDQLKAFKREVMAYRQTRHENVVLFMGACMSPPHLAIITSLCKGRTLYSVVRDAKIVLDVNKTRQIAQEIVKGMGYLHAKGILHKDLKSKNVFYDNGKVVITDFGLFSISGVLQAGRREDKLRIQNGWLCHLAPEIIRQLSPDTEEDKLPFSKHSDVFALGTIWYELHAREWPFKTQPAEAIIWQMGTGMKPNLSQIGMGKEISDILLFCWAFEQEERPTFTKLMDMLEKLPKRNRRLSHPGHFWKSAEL

Structure (SMILES)	target	test	system	conditions	scale	remaining activity
CC(C)[C@@H]1NC(=O)[C@H](Cc2ccccc2)NC(=O)CSC[C@@H](C(N)=O)NC(=O)[C@H](CCC(=O)O)NC(=O)[C@H](CO)NC(=O)[C@H](Cc2c[nH]c3cccc(Cl)c23)NC(=O)[C@H](C2CCCCC2)NC(=O)[C@H](C(C)C)NC(=O)[C@H](Cc2ccc(O)cc2)NC(=O)[C@H](CC(=O)O)NC(=O)[C@H](Cc2c[nH]c3ccccc23)NC(=O)[C@H](Cc2ccc(N)nc2)NC(=O)[C@H](Cc2c[nH]c3ccc(Cl)cc23)NC(=O)[C@H](CCC(=O)O)NC1=O	IL1RL2	reporter gene (SEAP), inhibitor, HEK-Blue IL-36R reporter	HEK-Blue IL-36R cells	0.14 µM, 6 h, together with: IL-36γ 0.03 ng/mL		8.6%
O=C1CCC(N2C(=O)c3cccc4c(Cc5cnn(C6CCN(C(=O)C7(O)CCC7)CC6)c5)ccc2c34)C(=O)N1 (stereo not drawn)	Cereblon/Ikaros	protein level, degrader, western blot	NCI-H929	10 nM, 4 h		4.32%
CN(Cc1cc(C2CC2)on1)C(=O)c1cccc(-c2ccc3c(c2)CCO3)c1	Acetyl-CoA synthetase (Cryptococcus neoformans, UniProt J9VFT1)	enzyme activity, inhibitor, coupled pyrophosphate		12.5 µM		92% and 98.9%
O=C1CCC(N2C(=O)c3cccc4c(Cc5ccc(CN6CCNCC6)nc5)ccc2c34)C(=O)N1 (stereo not drawn)	Cereblon/Ikaros	protein level, degrader, western blot	NCI-H929	10 nM, 4 h		51.7%
CC(C)c1ccc(/C=C/C(=O)c2cccc(C(F)(F)F)c2)cc1	MAOA	enzyme activity, inhibitor		10 µM		90%
COC(=O)[C@@]1(C)C=C(C(=O)Nc2cccc(C(=O)Nc3ccc(Nc4nccc(-c5cccnc5)n4)c(C)c3)c2)C(=O)CC1	MAPK8	enzyme activity, inhibitor		0.0007527 µM, 0 h, unit not given, together with: GSH 10 mM pre-incubation	relative to: vehicle	1.03
CC(=O)N1c2ccc(-c3ccc(CNC(=O)c4cn5cc(-c6cnc(N)nc6)nc(N6CCOCC6)c5n4)cc3)cc2CC[C@@H]1C	Serine/threonine-protein kinase mTOR (MTOR, Homo sapiens, UniProt P42345)	enzyme activity, inhibitor, radiometric		1 µM		108%
O=C(O[C@@H]1Cc2c(O)cc(O)cc2O[C@@H]1c1cc(O)c(O)c(O)c1)c1cc(O)c(O)c(O)c1	DNA cross-link repair 1A protein (DCLRE1A, Homo sapiens, UniProt Q6PJP8)	exonuclease activity, inhibitor, fluorescence HTS		10 µM, 80 min, together with: 8 nM 5P-FQ substrate		20.3%
Nc1ncc(-c2cc(-c3cnn(CC(F)(F)F)c3)ncc2F)nc1C(=O)NC1CNCC(F)C1 (stereo not drawn)	Kinase suppressor of Ras 2 (KSR2, Homo sapiens, UniProt Q6VAB6)	enzyme activity		1 µM	relative to: DMSO control	91.8%
CN1C[C@@H](c2c[nH]c3cc(Br)ccc23)NC[C@@H]1c1c[nH]c2cc(Br)ccc12	Cyclin-dependent kinase 12, with cyclin K (CDK12, Homo sapiens, UniProt Q9NYV4)	enzyme activity, inhibitor		10 µM		92%
COc1ccccc1-c1ccncc1C(=O)Nc1nnc(OCc2ccc(Cl)cc2)s1	DNA polymerase theta, helicase domain (POLQ, Homo sapiens, UniProt O75417)	ATPase activity, ADP-Glo		0.48 µM	relative to: 0 µM cpd	22%
O=C1CCC(N2C(=O)c3cccc4c(Cc5cnn(C6CCNCC6)c5)ccc2c34)C(=O)N1 (stereo not drawn)	Cereblon/Ikaros	protein level, degrader, western blot	NCI-H929	10 nM, 4 h		21.3%
N#Cc1cnc2sc(C(=O)O)cc2c1N1CCc2[nH]nc(C(=O)N[C@@H](CC(=O)NCCOCCN3CCOCC3)c3cccc(Br)c3)c2C1	IL1RL2	reporter gene (SEAP), inhibitor, HEK-Blue IL-36R reporter	HEK-Blue IL-36R cells	3.7 µM, 6 h, together with: IL36G 0.01 ng/mL		45.4%
O=C1CCC(N2C(=O)c3cccc4c(Cc5cnn(C6CCN(C(=O)C7(O)CC7)CC6)c5)ccc2c34)C(=O)N1 (stereo not drawn)	Cereblon/Ikaros	protein level, degrader, western blot	NCI-H929	1 nM, 4 h		29.4%
CC(C)c1ccc(/C=C/C(=O)c2ccc(Cl)cc2)cc1	MAOA	enzyme activity, inhibitor		10 µM		59.3%
CC(C)(O)C(=O)N1CCC(n2cc(Cc3ccc4c5c(cccc35)C(=O)N4C3CCC(=O)NC3=O)cn2)CC1 (stereo not drawn)	Cereblon/Ikaros	protein level, degrader, western blot	NCI-H929	10 nM, 4 h		5.63%
C[C@](C(=O)NC1CCOCC1)(c1cncnc1)N(C(=O)[C@H](F)Cl)c1ccc(OC(F)(F)Cl)cc1	Tryptase beta-2 (TPSB2, Homo sapiens, UniProt P20231)	enzyme activity, inhibitor		10 µM		101%
O=C1CCC(N2C(=O)c3cccc4c(Cc5cnn(C6CCN(C(=O)CS)CC6)c5)ccc2c34)C(=O)N1 (stereo not drawn)	Cereblon/Ikaros	protein level, degrader, western blot	NCI-H929	100 pM, 4 h		101%
O=C=[N][Ru-4]123([n]4c5ccc(O)cc5c5c6c(c7cc(F)c[n+]1c7c54)C(=O)NC6=O)[S+]1CC[S+]2CC[S+]3CC1 (stereo not drawn)	Mitogen-activated protein kinase 1 (Mapk1, Mus musculus, UniProt P63085)	enzyme activity		100 nM, mouse enzyme, together with: 10 µM ATP	relative to: untreated	95%
O=C1CCC(N2Cc3c(OCc4cn(C5CCNCC5)nn4)cccc3C2=O)C(=O)N1 (stereo not drawn)	Cereblon/Ikaros	protein level, degrader, western blot	NCI-H929	1 nM, 4 h		91.2%
COC(=O)[C@]1(C(C)C)C=C(C(=O)Nc2cccc(C(=O)Nc3ccc(Nc4nccc(-c5cccnc5)n4)c(C)c3)c2)C(=O)CC1	MAPK8	kinase activity, inhibitor		44.44 µM, unit not given, together with: 10 mM glutathione	relative to: no inhibitor	0.124

A few entries again:
Structure (SMILES)	target	test	system	conditions	scale	remaining activity
O=C=[N][Ru-4]123([n]4c5ccc(O)cc5c5c6c(c7cc(F)c[n+]1c7c54)C(=O)NC6=O)[S+]1CC[S+]2CC[S+]3CC1 (stereo not drawn)	Mitogen-activated protein kinase 1 (Mapk1, Mus musculus, UniProt P63085)	enzyme activity		100 nM, mouse enzyme, together with: 10 µM ATP	relative to: untreated	95%
